Results collected from several papers.
Numbered parts are unrelated; each lists some results of a single study. Several values in a cell are separate wells, animals, samples, runs or records.
Sequence of UniProt P42681 (whole entry, looked up): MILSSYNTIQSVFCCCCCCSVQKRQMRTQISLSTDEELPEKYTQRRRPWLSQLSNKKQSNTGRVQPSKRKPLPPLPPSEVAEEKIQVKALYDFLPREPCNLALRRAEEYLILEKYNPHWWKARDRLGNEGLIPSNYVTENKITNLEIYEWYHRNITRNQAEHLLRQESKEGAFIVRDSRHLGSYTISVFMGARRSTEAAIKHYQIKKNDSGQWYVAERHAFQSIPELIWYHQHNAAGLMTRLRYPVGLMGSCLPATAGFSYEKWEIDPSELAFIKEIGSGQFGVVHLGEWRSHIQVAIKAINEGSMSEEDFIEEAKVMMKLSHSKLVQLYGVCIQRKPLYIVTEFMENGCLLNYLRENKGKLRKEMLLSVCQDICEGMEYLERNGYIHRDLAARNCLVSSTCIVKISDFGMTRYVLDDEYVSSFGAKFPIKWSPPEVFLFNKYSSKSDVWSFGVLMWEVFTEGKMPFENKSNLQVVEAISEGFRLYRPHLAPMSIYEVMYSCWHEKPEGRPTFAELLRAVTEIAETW
Sequence of UniProt Q9BWU1 (whole entry, looked up): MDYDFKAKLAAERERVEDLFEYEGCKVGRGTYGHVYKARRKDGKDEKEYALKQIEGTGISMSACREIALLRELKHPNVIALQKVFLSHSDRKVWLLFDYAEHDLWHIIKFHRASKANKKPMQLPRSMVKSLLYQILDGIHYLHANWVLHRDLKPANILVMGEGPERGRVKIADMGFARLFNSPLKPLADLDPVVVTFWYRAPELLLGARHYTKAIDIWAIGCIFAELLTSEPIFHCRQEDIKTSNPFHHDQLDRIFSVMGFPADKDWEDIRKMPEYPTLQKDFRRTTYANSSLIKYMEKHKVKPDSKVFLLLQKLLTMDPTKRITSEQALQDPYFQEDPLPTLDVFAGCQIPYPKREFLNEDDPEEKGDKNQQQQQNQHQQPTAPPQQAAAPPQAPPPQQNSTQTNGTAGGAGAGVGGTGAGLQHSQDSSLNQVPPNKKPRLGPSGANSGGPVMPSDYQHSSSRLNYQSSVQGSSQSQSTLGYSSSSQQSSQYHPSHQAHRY

Series 1 — cell line: mouse MPNST tumor cells; technique: high-content nuclear imaging; refers to: cell number; tested at: 10 µM; time: 12 h; setting: mean of 2 replicates; baseline: plate mean; direction: higher = more cells
The nuclei count of `CC(C)(C)NC(=O)[C@@H]1CN(Cc2cccnc2)CCN1C[C@@H](O)C[C@@H](Cc1ccccc1)C(=O)N[C@H]1c2ccccc2C[C@H]1O` is reported as 1.61 z-score.
For `CC(N/C(=N\C#N)Nc1ccncc1)C(C)(C)C` (stereo not shown), the nuclei count was 5.17 z-score and 4.05 z-score.
With `COc1nc(C)nc(Cl)c1NC1=NCCN1` the nuclei count was 1.6 z-score and 0.376 z-score.
The nuclei count of `CN[C@@H]1[C@H](O[C@H]2[C@H](O[C@H]3[C@H](O)[C@@H](O)[C@H](N=C(N)N)[C@@H](O)[C@@H]3N=C(N)N)O[C@@H](C)[C@]2(O)C=O)O[C@@H](CO)[C@H](O)[C@H]1O` is reported as 0.996 z-score.
With `CCCN1CCCC[C@H]1C(=O)Nc1c(C)cccc1C` the nuclei count was 1.55 z-score.
With `CC1NC(=O)NC1=O` (stereo not shown) the nuclei count was 1.55 z-score and 0.954 z-score.
The nuclei count of `N=C(N)c1ccc(OCCCCCOc2ccc(C(=N)N)cc2)cc1` is reported as -0.963 z-score and -2.01 z-score.

Series 2 — effect on: RNA clamping; technique: fluorescence polarization; tested at: concentration not given; added: FAM-labelled poly r(AG)8 RNA
Target: Eukaryotic initiation factor 4A-III (Homo sapiens, UniProt P38919)
Sequence of UniProt P38919 (whole entry, looked up): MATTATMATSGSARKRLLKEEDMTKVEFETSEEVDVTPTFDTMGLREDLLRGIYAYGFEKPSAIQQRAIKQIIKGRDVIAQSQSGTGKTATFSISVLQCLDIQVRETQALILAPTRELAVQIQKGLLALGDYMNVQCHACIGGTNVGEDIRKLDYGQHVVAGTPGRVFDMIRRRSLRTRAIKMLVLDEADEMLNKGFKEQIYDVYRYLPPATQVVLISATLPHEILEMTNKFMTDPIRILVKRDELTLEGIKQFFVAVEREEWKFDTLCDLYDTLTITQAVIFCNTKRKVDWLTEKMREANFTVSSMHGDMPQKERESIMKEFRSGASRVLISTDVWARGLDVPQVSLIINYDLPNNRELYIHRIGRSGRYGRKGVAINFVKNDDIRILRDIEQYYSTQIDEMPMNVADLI
Under “fluorescence polarization change”, `COc1ccc([C@@]23Oc4cc(OC)cc(OC)c4[C@]2(O)[C@H](O)[C@H](C(=O)NCCCC(OC)OC)[C@H]3c2ccccc2)cc1` is recorded as 46.8 mP.
For `C#CCCC1(CCOc2cc(OC)c3c(c2)O[C@@]2(c4ccc(OC)cc4)[C@H](c4ccccc4)[C@@H](C(=O)c4ccco4)[C@@H](O)[C@@]32O)N=N1`, “fluorescence polarization change” read -2.1 mP.
For `COc1ccc([C@@]23Oc4cc(OC)cc(OC)c4[C@]2(O)[C@H](O)[C@H](C(=O)c2ccc(C)o2)[C@H]3c2ccccc2)cc1`, “fluorescence polarization change” read 17.3 mP.
For `COC(=O)[C@H]1C(=O)[C@@]2(NCc3cccnc3)c3c(OC)cc(OC)cc3O[C@@]2(c2ccc(OC)cc2)[C@@H]1c1ccccc1`, “fluorescence polarization change” read 3.2 mP.

Series 3 — effect on: enzyme activity; mode: inhibitor; tested at: 10 µM
Target: Calcium/calmodulin-dependent protein kinase type II subunit alpha (CAMK2A, Homo sapiens, UniProt Q9UQM7)
Sequence of UniProt Q9UQM7 (whole entry, looked up): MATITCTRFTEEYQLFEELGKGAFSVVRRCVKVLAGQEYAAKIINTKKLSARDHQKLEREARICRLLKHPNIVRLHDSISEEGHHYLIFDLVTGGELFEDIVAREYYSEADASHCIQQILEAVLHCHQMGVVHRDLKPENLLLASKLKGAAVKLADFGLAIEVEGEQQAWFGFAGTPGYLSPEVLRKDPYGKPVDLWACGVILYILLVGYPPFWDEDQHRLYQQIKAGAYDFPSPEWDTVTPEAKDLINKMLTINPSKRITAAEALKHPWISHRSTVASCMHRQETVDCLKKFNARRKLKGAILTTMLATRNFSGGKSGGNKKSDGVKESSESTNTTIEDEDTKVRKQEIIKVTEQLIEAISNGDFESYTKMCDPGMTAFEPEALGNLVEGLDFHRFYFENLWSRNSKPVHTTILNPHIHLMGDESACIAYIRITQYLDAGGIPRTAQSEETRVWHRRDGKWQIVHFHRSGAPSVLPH
The inhibition of `O=c1cc(-c2ccccc2)oc2cc(O)c(O)c(O)c12` is reported as -10%.
For `COc1ccc(-c2cc(=O)c3c(O)c(OC)c(O)cc3o2)cc1`, the inhibition was 2%.
For `C[S+]([O-])CCCC/C(=N\OS(=O)(=O)O)S[C@@H]1O[C@H](CO)[C@@H](O)[C@H](O)[C@H]1O` (stereo partly shown), the inhibition was 5%.
For `Cc1ccnc2c1NC(=O)c1cccnc1N2C1CC1`, the inhibition was 3%.
The inhibition of `COc1cc(C[C@H]2COC(=O)[C@@H]2Cc2ccc(O)c(OC)c2)ccc1O` is reported as 7%.
With `O=C(/C=C/c1ccc(O)c(O)c1)N[C@@H](Cc1ccc(O)c(O)c1)C(=O)O` the inhibition was 11%.
With `COc1cc([C@H]2OC[C@H]3[C@@H]2CO[C@@H]3c2ccc(O[C@@H]3O[C@H](CO)[C@@H](O)[C@H](O)[C@H]3O)c(OC)c2)ccc1O` the inhibition was 8%.

Series 4 — tested at: 1 µM
Structure (SMILES): Cc1nccc(COC(=O)N2C[C@@H]3[C@@H](CNC(=O)c4ccc5[nH]nnc5c4)[C@@H]3C2)n1
The remaining binding was 91% (MAP3K3 (Homo sapiens, UniProt Q99759); cell-free assay, competition with immobilised ligand).
DYRK1B (Homo sapiens, UniProt Q9Y463); cell-free assay, competition with immobilised ligand — remaining binding: 99%.
The remaining binding was 80% (STK16 (Homo sapiens, UniProt O75716); cell-free assay, competition with immobilised ligand).
It gave 78% for remaining binding (EGFR (Homo sapiens, UniProt P00533, L858R); cell-free assay, competition with immobilised ligand).
EGFR (Homo sapiens, UniProt P00533, T790M); cell-free assay, competition with immobilised ligand — remaining binding: 91%.
It gave 100% for remaining binding (EPHA8 (Homo sapiens, UniProt P29322); cell-free assay, competition with immobilised ligand).
STK10 (Homo sapiens, UniProt O94804); cell-free assay, competition with immobilised ligand — remaining binding: 100%.
For MAP3K1 (Homo sapiens, UniProt Q13233); cell-free assay, competition with immobilised ligand: remaining binding read 85%.
The remaining binding was 94% (TXK (Homo sapiens, UniProt P42681); binding, competition with immobilised ligand).
DMPK (Homo sapiens, UniProt Q09013); cell-free assay, competition with immobilised ligand — remaining binding: 98%.
The remaining binding was 89% (MYLK4 (Homo sapiens, UniProt Q86YV6); cell-free assay, competition with immobilised ligand).
It gave 100% for remaining binding (MET (Homo sapiens, UniProt P08581, M1250T); cell-free assay, competition with immobilised ligand).
It gave 85% for remaining binding (CSNK2A2 (Homo sapiens, UniProt P19784); cell-free assay, competition with immobilised ligand).
The remaining binding was 87% (EGFR (Homo sapiens, UniProt P00533, del747-750/T751S); cell-free assay, competition with immobilised ligand).
It gave 99% for remaining binding (HCK (Homo sapiens, UniProt P08631); cell-free assay, competition with immobilised ligand).
The remaining binding was 85% (MARK4 (Homo sapiens, UniProt Q96L34); cell-free assay, competition with immobilised ligand).
For MAP3K6 (Homo sapiens, UniProt O95382); cell-free assay, competition with immobilised ligand: remaining binding read 78%.
For MKNK2 (Homo sapiens, UniProt Q9HBH9); cell-free assay, competition with immobilised ligand: remaining binding read 90%.
Ribosomal protein S6 kinase alpha-6, C-terminal kinase domain (RPS6KA6, Homo sapiens, UniProt Q9UK32); cell-free assay, competition with immobilised ligand — remaining binding: 95%.
The remaining binding was 100% (BMP2K (Homo sapiens, UniProt Q9NSY1); cell-free assay, competition with immobilised ligand).
The remaining binding was 97% (CDK19 (Homo sapiens, UniProt Q9BWU1); competition binding).
The remaining binding was 82% (CDC42BPB (Homo sapiens, UniProt Q9Y5S2); cell-free assay, competition with immobilised ligand).
It gave 90% for remaining binding (MYLK2 (Homo sapiens, UniProt Q9H1R3); cell-free assay, competition with immobilised ligand).
The remaining binding was 90% (ERN1 (Homo sapiens, UniProt O75460); cell-free assay, competition with immobilised ligand).
FLT3 (Homo sapiens, UniProt P36888, D835H); cell-free assay, competition with immobilised ligand — remaining binding: 97%.

Series 5 — mode: agonist
Target: Beta-1 adrenergic receptor (ADRB1, Homo sapiens, UniProt P08588)
Sequence of UniProt P08588 (whole entry, looked up): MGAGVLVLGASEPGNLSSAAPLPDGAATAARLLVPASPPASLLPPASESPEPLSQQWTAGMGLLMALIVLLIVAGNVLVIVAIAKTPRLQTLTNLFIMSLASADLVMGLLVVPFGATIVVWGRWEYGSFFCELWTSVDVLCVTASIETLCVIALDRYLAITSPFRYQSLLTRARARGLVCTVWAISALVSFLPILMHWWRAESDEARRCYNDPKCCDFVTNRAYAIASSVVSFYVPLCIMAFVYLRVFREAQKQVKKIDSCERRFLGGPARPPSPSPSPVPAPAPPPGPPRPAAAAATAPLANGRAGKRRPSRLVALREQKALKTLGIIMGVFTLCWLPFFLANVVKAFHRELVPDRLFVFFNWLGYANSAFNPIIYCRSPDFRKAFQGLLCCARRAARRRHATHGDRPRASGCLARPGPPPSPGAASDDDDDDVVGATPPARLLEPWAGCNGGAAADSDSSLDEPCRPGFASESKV
`Cc1noc2c(N(C)C)cc(-c3ccc(Cl)cc3)nc12` has an EC50 of at least 100 µM.
For `Cc1noc2c(-c3ccc([S+](C)(=O)[O-])cc3)cc(-c3ccc(F)cc3)nc12`, the EC50 was at least 100 µM.
`COc1ccccc1N1CCC(N2C(=O)[C@H]3CCCN3C2=O)C1` (stereo partly shown) gave an EC50 of at least 100 µM.
With `CCOc1nccn2c(-c3ccc(CNCC(O)CO)cc3)cnc12` (stereo not shown) the EC50 was at least 100 µM.
`O=c1c2nc(-c3ccccc3)ccc2ncn1-c1ccc(F)cc1F` gave an EC50 of at least 100 µM.

Series 6 — effect on: enzyme activity; mode: inhibitor; tested at: 77 µM; baseline: untreated
Target: DNA polymerase theta, ATPase domain (POLQ, Homo sapiens, UniProt O75417)
Sequence of UniProt O75417 (whole entry, unmodified, looked up): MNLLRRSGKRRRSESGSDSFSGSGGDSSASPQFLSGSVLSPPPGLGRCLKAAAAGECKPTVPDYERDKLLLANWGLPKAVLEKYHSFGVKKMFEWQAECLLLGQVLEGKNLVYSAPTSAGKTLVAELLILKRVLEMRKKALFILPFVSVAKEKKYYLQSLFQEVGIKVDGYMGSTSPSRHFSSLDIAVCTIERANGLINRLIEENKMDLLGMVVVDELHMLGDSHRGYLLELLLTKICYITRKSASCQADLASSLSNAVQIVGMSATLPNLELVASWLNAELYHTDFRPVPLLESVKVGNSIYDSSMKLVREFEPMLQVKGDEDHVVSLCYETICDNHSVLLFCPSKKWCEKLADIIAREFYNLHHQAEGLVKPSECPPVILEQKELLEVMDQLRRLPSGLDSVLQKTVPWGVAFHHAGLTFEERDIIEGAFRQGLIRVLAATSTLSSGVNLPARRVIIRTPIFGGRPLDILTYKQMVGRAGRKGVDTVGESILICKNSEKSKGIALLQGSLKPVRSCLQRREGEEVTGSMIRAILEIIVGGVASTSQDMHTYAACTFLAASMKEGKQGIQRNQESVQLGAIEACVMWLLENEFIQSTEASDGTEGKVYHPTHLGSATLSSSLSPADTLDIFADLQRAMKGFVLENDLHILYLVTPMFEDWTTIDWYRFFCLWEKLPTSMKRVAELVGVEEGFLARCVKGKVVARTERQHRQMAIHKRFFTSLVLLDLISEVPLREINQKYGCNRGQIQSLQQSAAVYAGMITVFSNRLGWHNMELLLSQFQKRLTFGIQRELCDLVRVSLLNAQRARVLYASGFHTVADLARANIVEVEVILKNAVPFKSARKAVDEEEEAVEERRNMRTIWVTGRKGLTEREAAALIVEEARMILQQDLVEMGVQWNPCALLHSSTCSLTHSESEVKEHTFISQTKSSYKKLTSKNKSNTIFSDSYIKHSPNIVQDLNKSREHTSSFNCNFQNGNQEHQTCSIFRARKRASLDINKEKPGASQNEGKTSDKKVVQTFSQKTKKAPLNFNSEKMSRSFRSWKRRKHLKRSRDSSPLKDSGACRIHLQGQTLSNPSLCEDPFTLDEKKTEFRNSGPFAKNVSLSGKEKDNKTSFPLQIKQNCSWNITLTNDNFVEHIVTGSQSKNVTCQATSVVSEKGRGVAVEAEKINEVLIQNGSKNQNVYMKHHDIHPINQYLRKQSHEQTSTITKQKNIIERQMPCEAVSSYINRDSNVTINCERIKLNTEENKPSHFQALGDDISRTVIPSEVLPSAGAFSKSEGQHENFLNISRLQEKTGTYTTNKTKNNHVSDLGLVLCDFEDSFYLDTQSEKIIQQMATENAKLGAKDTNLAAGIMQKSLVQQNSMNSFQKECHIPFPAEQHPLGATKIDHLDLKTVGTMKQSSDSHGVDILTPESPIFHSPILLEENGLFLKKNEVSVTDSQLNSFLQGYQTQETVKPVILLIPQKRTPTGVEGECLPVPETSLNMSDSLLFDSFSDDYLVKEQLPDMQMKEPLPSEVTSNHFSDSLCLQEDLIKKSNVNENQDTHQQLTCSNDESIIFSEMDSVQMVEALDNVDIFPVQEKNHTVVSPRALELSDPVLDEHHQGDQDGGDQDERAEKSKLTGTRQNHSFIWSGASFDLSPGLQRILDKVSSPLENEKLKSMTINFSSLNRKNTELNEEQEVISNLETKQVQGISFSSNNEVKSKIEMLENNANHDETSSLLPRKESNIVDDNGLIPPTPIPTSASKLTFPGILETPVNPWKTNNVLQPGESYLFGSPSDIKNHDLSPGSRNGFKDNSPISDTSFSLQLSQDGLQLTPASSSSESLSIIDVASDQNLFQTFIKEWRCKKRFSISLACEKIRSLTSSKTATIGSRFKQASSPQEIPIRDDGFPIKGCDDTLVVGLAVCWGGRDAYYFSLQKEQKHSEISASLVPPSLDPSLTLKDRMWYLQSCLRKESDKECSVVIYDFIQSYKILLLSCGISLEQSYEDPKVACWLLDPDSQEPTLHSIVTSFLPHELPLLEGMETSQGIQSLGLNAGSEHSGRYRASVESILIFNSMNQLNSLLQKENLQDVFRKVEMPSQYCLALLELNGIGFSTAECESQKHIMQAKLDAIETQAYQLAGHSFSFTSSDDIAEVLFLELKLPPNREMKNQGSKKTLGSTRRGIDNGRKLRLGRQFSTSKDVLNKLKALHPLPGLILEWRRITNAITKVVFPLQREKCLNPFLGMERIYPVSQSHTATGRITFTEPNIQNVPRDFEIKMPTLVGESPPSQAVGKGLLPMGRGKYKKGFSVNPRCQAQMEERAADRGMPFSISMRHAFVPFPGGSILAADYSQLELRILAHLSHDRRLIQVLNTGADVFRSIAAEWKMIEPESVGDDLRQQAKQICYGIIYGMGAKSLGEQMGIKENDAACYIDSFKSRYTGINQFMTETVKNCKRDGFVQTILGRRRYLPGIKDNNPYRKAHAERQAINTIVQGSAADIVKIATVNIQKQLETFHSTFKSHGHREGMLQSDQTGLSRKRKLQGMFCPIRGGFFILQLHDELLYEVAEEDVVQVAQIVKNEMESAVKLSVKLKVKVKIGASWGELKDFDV
`c1ccc(-c2n[nH]c3c2oc2ccccc23)cc1` gave a remaining activity of 113%.
`Cn1nnc2c(C(N)=O)ncn2c1=O` gave a remaining activity of 92%.
For `CS(=O)(=O)c1ccc(C(=O)Nc2ccc(Cl)c(-c3ccccn3)c2)c(Cl)c1`, the remaining activity was 105%.

Further values, each from its own experiment
`CC[C@H](C)[C@H](N)C1=N[C@H](C(=O)N[C@@H](CC(C)C)C(=O)N[C@H](CCC(=O)O)C(=O)N[C@H](C(=O)N[C@H]2CCCCNC(=O)[C@H](CC(N)=O)NC(=O)[C@@H](CC(=O)O)NC(=O)[C@H](Cc3cnc[nH]3)NC(=O)[C@@H](Cc3ccccc3)NC(=O)[C@H]([C@@H](C)CC)NC(=O)[C@@H](CCCN)NC2=O)[C@@H](C)CC)CS1` gave an infection rate of 95.4% (Plasmodium berghei; liver stage infection, inhibitor; Huh-7; 10 µM, 24 h, GFP-expressing sporozoites; baseline: control).
